Experimental data from different studies.
Organism: Escherichia coli

Compound | test | system | setting | MIC
CC(C)[C@H](NC(=O)CNC(=O)CNC(=O)[C@H](Cc1ccc(O)cc1)NC(=O)[C@H](CS)NC(=O)[C@@H](NC(=O)[C@H](Cc1c[nH]c2ccccc12)NC(=O)[C@H](Cc1ccccc1)NC(=O)[C@H](CS)NC(=O)[C@H](Cc1c[nH]c2ccccc12)NC(=O)[C@@H](N)CCCNC(=N)N)C(C)C)C(=O)N[C@@H](CS)C(=O)N[C@@H](Cc1ccc(O)cc1)C(=O)N[C@@H](CCCNC(=N)N)C(=O)N[C@@H](CCCNC(=N)N)C(=O)N[C@@H](CS)C(=O)N[C@@H](CCCNC(=N)N)C(=O)O | broth microdilution | ATCC 25922, Mueller-Hinton broth | 16 to 20 h, 37 °C | 2.2 µg/mL
CCCCCCCC(=O)N[C@@H](CCN)C(=O)N[C@H](C(=O)N[C@@H](CCN)C(=O)N[C@H]1CCNC(=O)[C@H]([C@@H](C)O)NC(=O)[C@H](CCN)NC(=O)[C@H](CCN)NC(=O)[C@H](CCCc2ccccc2)NC(=O)[C@@H](Cc2ccccc2)NC(=O)[C@H](CCN)NC1=O)[C@@H](C)O | broth microdilution | ATCC 25922 | – | < 0.125 µg/mL
CC1(C)S[C@@H]2[C@H](NC(=O)[C@H](NC(=O)C3=C(O)C(c4ccccc4F)NC3=O)c3ccccc3)C(=O)N2[C@H]1C(=O)O (stereo partly shown) | broth microdilution | isolate IU, CTX-M-14, TEM-1 | together with: clavulanic acid 6 µg/mL | > 200 µg/mL
CC(=O)NC[C@H]1CN(c2ccc(N3CCN(C(=O)CN)CC3)c(F)c2)C(=O)O1 | broth dilution | drug-resistant | – | > 200 µM
CC[C@H](C)[C@H](NC(=O)[C@H](CCCCN)NC(=O)[C@H](CC(N)=O)NC(=O)CNC(=O)[C@@H](NC(=O)[C@H](C)NC(=O)[C@H](CCCNC(=N)N)NC(=O)[C@H](CC(C)C)NC(=O)[C@H](CCCCN)NC(=O)[C@H](CCCCN)NC(=O)[C@H](CCCCN)NC(=O)[C@H](C)NC(=O)[C@H](CCCCN)NC(=O)[C@@H]1CSSC[C@H](NC(=O)[C@H](CCCNC(=N)N)NC(=O)CN)C(=O)N[C@@H](CC(N)=O)C(=O)N[C@@H](CC(C)C)C(=O)N[C@@H](CC(C)C)C(=O)N1)C(C)C)C(=O)N[C@@H](CCCCN)C(=O)N[C@@H](CCC(=O)O)C(=O)N[C@H](C(=O)N[C@@H](CCCCN)C(=O)N[C@@H](CC(N)=O)C(=O)N[C@H](C(=O)N[C@H](C(=O)N[C@@H](Cc1ccccc1)C(=O)N[C@@H](CC(N)=O)C(=O)N[C@@H](CCCNC(=N)N)C(=O)O)C(C)C)C(C)C)[C@@H](C)CC | broth dilution | ATCC 25922 | – | 6.25 µM
CC[C@H](C)[C@H](NC(=O)[C@H](Cc1c[nH]c2ccccc12)NC(=O)[C@H](Cc1ccc(O)cc1)NC(=O)[C@H](CCCCN)NC(=O)[C@H](CC(C)C)NC(=O)[C@@H](N)CO)C(=O)N[C@@H](CCCNC(=N)N)C(=O)N[C@@H](Cc1ccc(O)cc1)C(=O)N[C@@H](CCCCN)C(=O)N[C@@H](CCCNC(=N)N)C(=O)N[C@@H](CCC(N)=O)C(=O)NCC(=O)N[C@@H](C)C(=O)N[C@@H](C)C(=O)N[C@@H](CCCNC(=N)N)C(=O)N[C@@H](Cc1ccccc1)C(N)=O | broth dilution | ATCC 25922, Mueller-Hinton broth | 24 h, 37 °C | 12.5 µM
CC[C@H](C)[C@H](NC(=O)[C@@H](CCCNC(=N)N)NC(=O)[C@H](CCCNC(=N)N)NC(=O)[C@@H]1CCCN1C(=O)[C@@H]1CCCN1C(=O)[C@H](CCCNC(=N)N)NC(=O)[C@@H]1CCCN1C(=O)[C@H](CCCNC(=N)N)NC(=O)[C@@H]1CCCN1C(=O)[C@H](CC(C)C)NC(=O)[C@H](Cc1cc(I)c(O)c(I)c1)NC(=O)[C@@H]1CCCN1C(=O)[C@@H]1CCCN1C(=O)[C@H](CCCCN)NC(=O)[C@H](CC(=O)O)NC(=O)[C@@H](N)C(C)C)C(=O)N[C@@H](Cc1ccc(O)cc1)C(=O)N[C@@H](CC(N)=O)C(=O)N[C@H](CCCNC(=N)N)C(N)=O | broth microdilution | BW25113 | 18 h, 37 °C, 25% MHB2 | 64 µg/mL
CC[C@H](C)[C@H](NC(=O)[C@@H](NC(=O)[C@H](CCCCN)NC(=O)[C@H](CCC(N)=O)NC(=O)[C@@H](NC(=O)[C@H](Cc1c[nH]c2ccccc12)NC(=O)[C@H](CCCCN)NC(=O)[C@H](CCCCN)NC(=O)[C@H](CC(C)C)NC(=O)[C@H](CCCNC(=N)N)NC(=O)[C@H](Cc1ccccc1)NC(=O)[C@@H](N)C(C)C)[C@@H](C)CC)C(C)C)C(N)=O | – | – | 24 h, 37 °C, Mueller-Hinton broth, no additive | 64 µM
CC(=O)N[C@@H](CC(C)C)C(=O)N[C@H]1CSSC[C@@H](C(=O)N2CCC[C@H]2C(N)=O)NC(=O)[C@H]([C@@H](C)O)NC(=O)[C@H](C(C)C)NC(=O)[C@H]([C@@H](C)O)NC(=O)CNC(=O)[C@H](CCCCN)NC(=O)[C@H](Cc2ccccc2)NC(=O)[C@H](Cc2ccc(O)cc2)NC(=O)[C@H](CCCCN)NC(=O)[C@H](CCC(=O)O)NC(=O)[C@H](Cc2ccccc2)NC(=O)[C@H](CCCNC(=N)N)NC(=O)[C@H](CCCCN)NC(=O)[C@H](CC(C)C)NC(=O)[C@H](CC(=O)O)NC(=O)[C@@H]2CCCN2C(=O)[C@H](CCCCN)NC(=O)[C@H](C(C)C)NC(=O)[C@H](CCCCN)NC(=O)[C@H](CCCCN)NC(=O)[C@H]([C@@H](C)O)NC1=O | broth dilution | laboratory strain | 24 h | > 40 µM
CC(C)C[C@H](NC(=O)[C@@H](NC(=O)[C@H](CCCCN)NC(=O)[C@H](CCCCN)NC(=O)[C@H](CC(C)C)NC(=O)[C@H](Cc1c[nH]c2ccccc12)NC(=O)[C@H](CCCCN)NC(=O)[C@H](Cc1c[nH]c2ccccc12)NC(=O)[C@H](CC(C)C)NC(=O)[C@H](CCCCN)NC(=O)[C@H](CCCCN)NC(=O)[C@@H](N)C(C)C)C(C)C)C(N)=O | – | – | 24 h, 37 °C, Mueller-Hinton broth, NaCl 150 mM | 32 µM
COc1c(NC(=O)c2ccc(NC(=O)c3ccc(NC(=O)[C@H](CC#N)NC(=O)c4ccc(NC(=O)/C(C)=C/c5ccc(O)cc5)cc4)cc3)c(OC)c2O)ccc(C(=O)O)c1O | – | K12 ΔtolC | – | 0.06 µg/mL
CC[C@H](C)[C@H](NC(=O)[C@@H](CCCNC(=N)N)NC(=O)[C@H](CCCNC(=N)N)NC(=O)[C@@H]1CCCN1C(=O)[C@@H]1CCCN1C(=O)[C@H](CCCNC(=N)N)NC(=O)[C@@H]1CCCN1C(=O)[C@H](CCCNC(=N)N)NC(=O)[C@@H]1CCCN1C(=O)[C@H](CC(C)C)NC(=O)[C@H](Cc1ccc(O)cc1)NC(=O)[C@H](CCCNC(=N)N)NC(=O)[C@@H]1CCCN1C(=O)[C@H](CCCCN)NC(=O)[C@H](CC(=O)O)NC(=O)[C@@H](N)C(C)C)C(=O)N[C@@H](Cc1ccc(O)cc1)C(=O)N[C@@H](CC(N)=O)C(=O)N[C@H](CCCNC(=N)N)C(N)=O | broth microdilution | BW25113 | 18 h, 37 °C, 25% MHB2 | 8 µg/mL
CC(C)C[C@H](NC(=O)[C@H](CCCNC(=N)N)NC(=O)CNC(=O)CNC(=O)[C@@H](N)CCCNC(=N)N)C(=O)N[C@H]1CSSC[C@@H](C(=O)N[C@H](C(=O)NCC(=O)N[C@@H](CCCNC(=N)N)C(N)=O)C(C)C)NC(=O)[C@H](C(C)C)NC(=O)[C@@H]2CSSC[C@H](NC(=O)[C@H](Cc3ccc(O)cc3)NC1=O)C(=O)N[C@@H](CCCNC(=N)N)C(=O)N[C@@H](CCCNC(=N)N)C(=O)N[C@@H](CCCNC(=N)N)C(=O)N[C@@H](Cc1ccccc1)C(=O)N2 | broth dilution | K12 BW25113 | 18 h, 37 °C | 1.8 µM
CC[C@H](C)[C@H](NC(=O)[C@@H](CCCNC(=N)N)NC(=O)[C@H](CCCNC(=N)N)NC(=O)CNC(=O)[C@H](Cc1c[nH]c2ccccc12)NC(=O)[C@H](CCCNC(=N)N)NC(=O)[C@@H]1CCCN1C(=O)[C@H](CCCNC(=N)N)NC(=O)[C@@H]1CCCN1C(=O)[C@H](CC(C)C)NC(=O)[C@H](Cc1ccc(O)cc1)NC(=O)[C@@H]1CCCN1C(=O)[C@@H]1CCCN1C(=O)[C@H](CCCCN)NC(=O)[C@H](CC(=O)O)NC(=O)[C@@H](N)C(C)C)C(=O)N[C@@H](Cc1ccc(O)cc1)C(=O)N[C@@H](CC(N)=O)C(=O)N[C@H](CCCNC(=N)N)C(N)=O | broth microdilution | BW25113 | 18 h, 37 °C, 25% MHB2 | 4 µg/mL
CC1(C)C(NC(=O)C(=NOC2(C(=O)O)CC2)c2csc(N)n2)C(=O)N1OS(=O)(=O)O (stereo not shown) | – | 13-1, NDM-positive | compound alone | 2 µg/mL
CC[C@H](C)[C@H](NC(=O)[C@H](CCCNC(=N)N)NC(=O)[C@H](CO)NC(=O)[C@H](Cc1ccc(O)cc1)NC(=O)[C@@H](NC(=O)[C@@H](NC(=O)[C@H](C)NC(=O)CNC(=O)[C@H](CCCCN)NC(=O)[C@H](CCCCN)NC(=O)CCNC(=O)CCCCCNC(=O)[C@H](CCCNC(=N)N)NC(=O)CCCCCNC(=O)[C@H](CCCNC(=N)N)NC(=O)[C@H](CCCNC(=N)N)NC(=O)CCCCCNC(=O)[C@H](CCCNC(=N)N)NC(=O)[C@H](CCCNC(=N)N)NC(=O)CCCCCNC(=O)[C@H](CCCNC(=N)N)NC(=O)[C@H](CCCNC(=N)N)NC(=O)CCCCCNC(=O)[C@@H](N)CCCNC(=N)N)C(C)C)[C@@H](C)O)C(=O)N[C@@H](CO)C(=O)NCC(=O)N[C@@H](CCC(N)=O)C(=O)N[C@@H](Cc1ccc(O)cc1)C(=O)N[C@@H](CCCCN)C(=O)O | – | ATCC 25922, Mueller-Hinton broth | together with: KCl 4.5 mM | 6 µM

Repeated from above:
Compound | test | system | setting | MIC
CC[C@H](C)[C@H](NC(=O)[C@H](Cc1c[nH]c2ccccc12)NC(=O)[C@H](Cc1ccc(O)cc1)NC(=O)[C@H](CCCCN)NC(=O)[C@H](CC(C)C)NC(=O)[C@@H](N)CO)C(=O)N[C@@H](CCCNC(=N)N)C(=O)N[C@@H](Cc1ccc(O)cc1)C(=O)N[C@@H](CCCCN)C(=O)N[C@@H](CCCNC(=N)N)C(=O)N[C@@H](CCC(N)=O)C(=O)NCC(=O)N[C@@H](C)C(=O)N[C@@H](C)C(=O)N[C@@H](CCCNC(=N)N)C(=O)N[C@@H](Cc1ccccc1)C(N)=O | broth dilution | ATCC 25922, Mueller-Hinton broth | 24 h, 37 °C | 12.5 µM
